Measurements gathered from unrelated publications.
Parts stem from different laboratories: compare values within a part only. Several values in a cell are separate wells, animals, samples, runs or records. Values after ≈ are worked out from the molar mass of the structure shown.
UniProt Q695T7, sequence (whole entry, looked up): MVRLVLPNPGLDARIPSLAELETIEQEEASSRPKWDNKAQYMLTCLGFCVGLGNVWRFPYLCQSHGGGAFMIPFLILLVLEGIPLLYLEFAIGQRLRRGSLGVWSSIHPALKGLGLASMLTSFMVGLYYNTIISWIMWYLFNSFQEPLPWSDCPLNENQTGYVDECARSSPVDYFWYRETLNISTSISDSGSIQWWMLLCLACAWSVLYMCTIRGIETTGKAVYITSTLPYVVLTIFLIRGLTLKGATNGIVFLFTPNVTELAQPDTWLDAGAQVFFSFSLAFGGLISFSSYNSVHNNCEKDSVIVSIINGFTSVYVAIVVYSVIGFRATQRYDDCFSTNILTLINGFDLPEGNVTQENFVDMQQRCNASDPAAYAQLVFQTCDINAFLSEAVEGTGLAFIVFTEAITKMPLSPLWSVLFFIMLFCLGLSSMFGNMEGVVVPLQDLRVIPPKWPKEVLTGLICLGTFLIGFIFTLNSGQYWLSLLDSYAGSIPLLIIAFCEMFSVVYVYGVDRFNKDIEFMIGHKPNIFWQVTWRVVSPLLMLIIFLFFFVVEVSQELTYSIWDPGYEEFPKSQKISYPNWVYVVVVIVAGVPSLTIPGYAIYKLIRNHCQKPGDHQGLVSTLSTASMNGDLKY

Series 1
SMILES: Cn1cc(-c2cccc(CN3CCC4(CC3)COc3c4ccc4c3CN([C@@H]3CCC(=O)NC3=O)C4=O)c2)cn1
Target: CRBN/Zinc finger protein Helios (Homo sapiens, UniProt Q96SW2+Q9UKS7)
UniProt Q9UKS7, sequence (whole entry, looked up): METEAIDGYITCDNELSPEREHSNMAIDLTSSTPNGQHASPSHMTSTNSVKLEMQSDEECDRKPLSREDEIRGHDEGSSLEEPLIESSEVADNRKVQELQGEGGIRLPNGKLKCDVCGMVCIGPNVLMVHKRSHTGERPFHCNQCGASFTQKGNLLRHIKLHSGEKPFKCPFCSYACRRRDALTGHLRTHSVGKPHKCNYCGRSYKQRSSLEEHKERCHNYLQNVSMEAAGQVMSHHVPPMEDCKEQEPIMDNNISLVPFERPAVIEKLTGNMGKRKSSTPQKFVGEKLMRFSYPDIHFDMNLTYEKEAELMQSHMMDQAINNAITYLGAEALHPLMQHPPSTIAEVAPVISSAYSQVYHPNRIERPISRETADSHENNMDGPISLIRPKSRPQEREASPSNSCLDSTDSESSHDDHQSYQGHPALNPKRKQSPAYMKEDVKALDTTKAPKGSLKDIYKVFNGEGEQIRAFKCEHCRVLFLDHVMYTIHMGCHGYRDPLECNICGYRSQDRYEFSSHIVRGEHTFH
UniProt Q96SW2, sequence (whole entry, looked up): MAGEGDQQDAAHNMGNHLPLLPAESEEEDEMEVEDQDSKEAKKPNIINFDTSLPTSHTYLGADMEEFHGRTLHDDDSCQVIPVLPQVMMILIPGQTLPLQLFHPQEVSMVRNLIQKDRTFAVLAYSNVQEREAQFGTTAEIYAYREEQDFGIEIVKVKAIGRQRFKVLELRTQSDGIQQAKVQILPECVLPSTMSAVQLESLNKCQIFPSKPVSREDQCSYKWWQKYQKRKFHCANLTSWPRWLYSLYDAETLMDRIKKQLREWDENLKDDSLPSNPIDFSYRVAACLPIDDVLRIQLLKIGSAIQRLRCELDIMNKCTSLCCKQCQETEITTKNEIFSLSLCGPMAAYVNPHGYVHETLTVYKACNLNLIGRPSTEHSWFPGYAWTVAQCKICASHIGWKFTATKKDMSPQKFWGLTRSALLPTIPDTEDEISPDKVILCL
Action: degrader
Method: HiBiT
Cells: HEK293
For 1000 nM: protein remaining read 8.8% and 10.7%.
It gave 96.2% and 107% for protein remaining (0.05081 nM).
The protein remaining was 14.2% and 17.1% (111.1 nM).
1.372 nM — protein remaining: 83% and 77%.
4.115 nM — protein remaining: 52.6% and 47.9%.
0.1524 nM — protein remaining: 84.3% and 96.7%.

Series 2
Compound: CCCCC[C@@H]1CC(=O)N[C@@H](C(C)C)C(=O)N[C@H](CCCNC(=N)N)C(=O)N[C@@H](C(C)C)C(=O)NCC(=O)N2CCC[C@H]2C(=O)N[C@@H](CC(C)C)C(=O)N[C@H](CCCNC(=N)N)C(=O)N[C@@H](CCC(=O)O)C(=O)N[C@H](Cc2ccc(O)cc2)C(=O)N[C@H](Cc2c[nH]c3ccccc23)C(=O)NCCCC(=O)O1
For Staphylococcus aureus; USA300; with: menaquinone 0.5 µg/mL: MIC read 4 µg/mL (≈ 2.7 µM).
For Staphylococcus aureus; USA300; with: ubiquinone 16 µg/mL: MIC read 1 µg/mL (≈ 0.674 µM).
For Staphylococcus aureus; USA300; with: menaquinone 2 µg/mL: MIC read 8 µg/mL (≈ 5.39 µM).
For Staphylococcus aureus; USA300; with: menaquinone 8 µg/mL: MIC read 32 µg/mL (≈ 21.6 µM).
For Staphylococcus aureus; USA300; with: ubiquinone 4 µg/mL: MIC read 1 µg/mL (≈ 0.674 µM).
It gave greater than 64 µg/mL for MIC (Escherichia coli; microbial growth; 16 h).

Mixed results
The IC50 of `FC(F)(F)c1ccc(C2=NOC3(NC(c4ccccc4)=NO3)N2c2ccccc2)cc1` (centres unmarked) is reported as 4.6 µM (Plasmodium falciparum; parasite growth; DD2; 72 h, drug-resistant strain, blood stage).
For `CCCNC(=O)COc1ccc(Br)c(C)c1`, “remaining transport activity” read 1.05 (SLC6A19 (Homo sapiens, UniProt Q695T7); inhibitor, FLIPR membrane potential; CHO-BC cells; 0.003 µM, unit not given; relative to: uninhibited cells).

A few entries again (series 2):
For Staphylococcus aureus; USA300; with: ubiquinone 16 µg/mL: MIC read 1 µg/mL (≈ 0.674 µM).
For Staphylococcus aureus; USA300; with: menaquinone 2 µg/mL: MIC read 8 µg/mL (≈ 5.39 µM).
